Experimental data of several laboratories.
± gives the spread as reported.
IDO1: Indoleamine 2,3-dioxygenase 1 (IDO1, Homo sapiens, UniProt P14902)
Chain of UniProt P14902 (whole entry, looked up): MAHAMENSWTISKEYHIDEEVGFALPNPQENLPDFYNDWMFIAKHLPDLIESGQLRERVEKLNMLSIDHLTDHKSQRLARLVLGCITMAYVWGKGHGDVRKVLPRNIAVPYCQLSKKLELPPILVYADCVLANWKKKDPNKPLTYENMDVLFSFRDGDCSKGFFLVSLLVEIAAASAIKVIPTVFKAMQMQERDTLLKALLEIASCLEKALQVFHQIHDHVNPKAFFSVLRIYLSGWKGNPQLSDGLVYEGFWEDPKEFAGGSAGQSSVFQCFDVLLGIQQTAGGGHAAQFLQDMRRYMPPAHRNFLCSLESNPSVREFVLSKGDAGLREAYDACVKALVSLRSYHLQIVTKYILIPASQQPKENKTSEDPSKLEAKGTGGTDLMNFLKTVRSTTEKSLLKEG
GSK3A: Glycogen synthase kinase-3 alpha (GSK3A, Homo sapiens, UniProt P49840)
Chain of UniProt P49840 (whole entry, looked up): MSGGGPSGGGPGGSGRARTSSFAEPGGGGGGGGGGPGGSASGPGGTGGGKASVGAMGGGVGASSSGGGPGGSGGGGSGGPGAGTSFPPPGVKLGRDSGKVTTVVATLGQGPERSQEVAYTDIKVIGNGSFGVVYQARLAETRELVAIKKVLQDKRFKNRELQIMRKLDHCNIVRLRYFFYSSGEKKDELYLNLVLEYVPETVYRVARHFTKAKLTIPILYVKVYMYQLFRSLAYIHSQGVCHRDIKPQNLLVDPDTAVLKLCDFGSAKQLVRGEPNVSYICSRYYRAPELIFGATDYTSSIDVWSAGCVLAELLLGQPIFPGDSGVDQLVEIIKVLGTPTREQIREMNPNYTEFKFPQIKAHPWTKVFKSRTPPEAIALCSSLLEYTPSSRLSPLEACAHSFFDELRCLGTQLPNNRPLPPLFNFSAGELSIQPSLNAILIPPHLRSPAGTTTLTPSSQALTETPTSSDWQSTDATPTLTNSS
Aldo-keto reductase family 1 member B1: Aldo-keto reductase family 1 member B1 (Bos taurus, UniProt P16116)
SCN10A: Sodium channel protein type 10 subunit alpha (SCN10A, Homo sapiens, UniProt Q9Y5Y9)
Chain of UniProt Q9Y5Y9 (whole entry, looked up): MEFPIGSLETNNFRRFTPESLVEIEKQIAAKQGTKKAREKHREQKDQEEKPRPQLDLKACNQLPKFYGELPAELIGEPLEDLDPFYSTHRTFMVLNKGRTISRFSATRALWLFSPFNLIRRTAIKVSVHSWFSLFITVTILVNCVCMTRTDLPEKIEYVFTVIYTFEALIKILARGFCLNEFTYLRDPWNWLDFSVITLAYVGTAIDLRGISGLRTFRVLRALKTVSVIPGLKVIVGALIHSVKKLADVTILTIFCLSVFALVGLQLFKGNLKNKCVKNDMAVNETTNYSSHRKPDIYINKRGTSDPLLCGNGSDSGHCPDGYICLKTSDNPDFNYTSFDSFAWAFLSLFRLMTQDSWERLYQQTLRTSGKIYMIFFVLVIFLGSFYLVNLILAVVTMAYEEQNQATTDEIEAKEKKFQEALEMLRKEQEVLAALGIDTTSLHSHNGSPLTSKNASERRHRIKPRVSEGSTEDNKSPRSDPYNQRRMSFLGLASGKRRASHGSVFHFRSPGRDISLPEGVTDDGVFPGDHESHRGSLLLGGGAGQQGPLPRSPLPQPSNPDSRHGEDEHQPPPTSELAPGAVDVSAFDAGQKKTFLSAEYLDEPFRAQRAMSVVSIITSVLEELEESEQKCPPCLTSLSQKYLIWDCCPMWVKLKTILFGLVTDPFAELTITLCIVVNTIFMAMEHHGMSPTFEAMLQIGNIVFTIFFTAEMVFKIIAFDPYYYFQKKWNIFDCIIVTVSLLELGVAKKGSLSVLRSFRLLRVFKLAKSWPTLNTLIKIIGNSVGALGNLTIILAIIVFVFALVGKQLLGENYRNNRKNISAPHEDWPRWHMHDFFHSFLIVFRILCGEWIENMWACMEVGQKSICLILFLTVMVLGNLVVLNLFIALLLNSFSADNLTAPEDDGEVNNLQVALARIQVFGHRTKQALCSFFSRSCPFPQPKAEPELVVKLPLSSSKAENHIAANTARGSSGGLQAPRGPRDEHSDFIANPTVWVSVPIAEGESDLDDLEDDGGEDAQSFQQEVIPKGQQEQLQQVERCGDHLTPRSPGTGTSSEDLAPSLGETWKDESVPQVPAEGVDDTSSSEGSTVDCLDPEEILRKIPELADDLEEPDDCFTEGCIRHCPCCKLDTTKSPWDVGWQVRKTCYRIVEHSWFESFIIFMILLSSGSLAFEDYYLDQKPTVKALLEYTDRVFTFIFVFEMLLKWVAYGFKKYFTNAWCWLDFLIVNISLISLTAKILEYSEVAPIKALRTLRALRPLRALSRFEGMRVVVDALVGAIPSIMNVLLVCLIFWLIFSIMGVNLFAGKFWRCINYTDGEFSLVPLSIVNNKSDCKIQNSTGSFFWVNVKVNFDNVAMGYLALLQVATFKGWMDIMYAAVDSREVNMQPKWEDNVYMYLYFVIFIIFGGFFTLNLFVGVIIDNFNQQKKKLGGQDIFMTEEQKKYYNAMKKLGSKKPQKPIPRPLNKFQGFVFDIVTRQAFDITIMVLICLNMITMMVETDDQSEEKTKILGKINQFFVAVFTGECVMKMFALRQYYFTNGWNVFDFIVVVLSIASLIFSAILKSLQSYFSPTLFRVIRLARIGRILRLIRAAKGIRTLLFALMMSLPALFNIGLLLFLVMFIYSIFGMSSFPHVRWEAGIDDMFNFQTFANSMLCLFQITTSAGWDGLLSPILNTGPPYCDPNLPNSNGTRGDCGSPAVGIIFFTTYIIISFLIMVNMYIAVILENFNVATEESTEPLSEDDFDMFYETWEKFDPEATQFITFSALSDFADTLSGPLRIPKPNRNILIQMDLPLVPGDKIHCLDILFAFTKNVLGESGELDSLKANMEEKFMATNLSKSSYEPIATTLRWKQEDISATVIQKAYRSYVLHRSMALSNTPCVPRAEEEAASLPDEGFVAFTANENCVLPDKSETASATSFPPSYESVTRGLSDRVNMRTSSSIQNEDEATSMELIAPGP
Genome polyprotein NS2B-NS3 protease: Genome polyprotein, NS2B-NS3 protease (Dengue virus type 2, UniProt P14340)
PPO3: PPO3 (Agaricus bisporus, UniProt C7FF04)
Chain of UniProt C7FF04 (whole entry, looked up): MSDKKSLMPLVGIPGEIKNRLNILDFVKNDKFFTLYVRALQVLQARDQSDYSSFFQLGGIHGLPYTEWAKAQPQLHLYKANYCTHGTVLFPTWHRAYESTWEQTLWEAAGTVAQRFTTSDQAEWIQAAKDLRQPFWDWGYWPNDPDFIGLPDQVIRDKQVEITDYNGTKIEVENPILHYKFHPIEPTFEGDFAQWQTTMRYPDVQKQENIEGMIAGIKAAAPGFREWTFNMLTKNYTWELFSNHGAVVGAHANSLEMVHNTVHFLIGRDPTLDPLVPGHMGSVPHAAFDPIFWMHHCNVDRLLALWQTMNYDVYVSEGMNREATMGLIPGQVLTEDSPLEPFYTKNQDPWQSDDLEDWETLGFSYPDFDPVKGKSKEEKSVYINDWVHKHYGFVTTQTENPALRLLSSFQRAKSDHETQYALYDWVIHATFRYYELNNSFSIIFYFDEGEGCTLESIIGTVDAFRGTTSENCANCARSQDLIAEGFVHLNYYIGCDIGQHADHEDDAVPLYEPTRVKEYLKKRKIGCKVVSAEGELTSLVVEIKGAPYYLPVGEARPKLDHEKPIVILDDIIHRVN
gag-pol integrase: Gag-Pol polyprotein, integrase (gag-pol, Human immunodeficiency virus type 1 group M subtype B, UniProt P04585)
KDM1A with CoREST: Lysine-specific histone demethylase 1A, with CoREST (KDM1A, Homo sapiens, UniProt O60341)
Chain of UniProt Q7Z1V1 (whole entry, looked up): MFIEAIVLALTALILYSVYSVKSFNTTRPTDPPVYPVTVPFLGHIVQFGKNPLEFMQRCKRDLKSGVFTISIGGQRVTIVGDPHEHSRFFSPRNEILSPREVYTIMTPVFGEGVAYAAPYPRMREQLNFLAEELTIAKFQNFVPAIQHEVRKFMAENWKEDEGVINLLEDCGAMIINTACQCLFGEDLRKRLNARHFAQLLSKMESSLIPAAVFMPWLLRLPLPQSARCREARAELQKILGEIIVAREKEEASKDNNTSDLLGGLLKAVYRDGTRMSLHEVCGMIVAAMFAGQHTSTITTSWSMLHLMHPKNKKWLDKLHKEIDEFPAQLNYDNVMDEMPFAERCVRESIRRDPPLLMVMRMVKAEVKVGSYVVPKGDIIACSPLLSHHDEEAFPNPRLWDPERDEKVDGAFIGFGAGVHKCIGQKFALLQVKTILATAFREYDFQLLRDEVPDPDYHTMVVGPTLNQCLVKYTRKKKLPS
Chain of UniProt P03952 (whole entry, looked up): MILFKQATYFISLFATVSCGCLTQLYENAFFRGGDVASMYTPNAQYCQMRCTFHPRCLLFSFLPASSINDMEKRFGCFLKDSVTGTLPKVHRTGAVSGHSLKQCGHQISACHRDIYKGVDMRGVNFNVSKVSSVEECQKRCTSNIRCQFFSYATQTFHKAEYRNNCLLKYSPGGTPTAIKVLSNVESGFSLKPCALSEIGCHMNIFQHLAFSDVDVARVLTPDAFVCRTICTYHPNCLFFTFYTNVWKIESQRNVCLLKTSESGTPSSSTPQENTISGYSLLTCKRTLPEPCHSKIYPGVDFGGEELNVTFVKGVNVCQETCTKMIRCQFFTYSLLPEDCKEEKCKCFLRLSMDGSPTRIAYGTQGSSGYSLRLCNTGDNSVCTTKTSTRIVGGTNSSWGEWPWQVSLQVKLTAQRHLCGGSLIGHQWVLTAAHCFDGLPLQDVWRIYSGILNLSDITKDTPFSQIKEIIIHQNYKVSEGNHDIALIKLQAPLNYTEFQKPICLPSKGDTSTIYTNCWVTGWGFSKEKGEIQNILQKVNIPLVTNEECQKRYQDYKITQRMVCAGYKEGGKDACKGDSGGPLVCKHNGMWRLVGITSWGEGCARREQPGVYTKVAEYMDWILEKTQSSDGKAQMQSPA
Chain of UniProt P9WQN9 (whole entry, looked up): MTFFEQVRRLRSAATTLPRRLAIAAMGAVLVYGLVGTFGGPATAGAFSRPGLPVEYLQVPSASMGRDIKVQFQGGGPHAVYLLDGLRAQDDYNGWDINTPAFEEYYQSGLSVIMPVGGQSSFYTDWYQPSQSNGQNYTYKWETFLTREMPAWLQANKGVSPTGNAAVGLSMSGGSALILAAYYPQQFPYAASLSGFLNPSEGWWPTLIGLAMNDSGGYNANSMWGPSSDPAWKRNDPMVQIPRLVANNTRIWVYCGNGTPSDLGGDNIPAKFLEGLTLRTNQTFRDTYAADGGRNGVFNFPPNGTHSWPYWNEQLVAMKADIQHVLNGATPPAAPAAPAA

For `COc1cc(C)c(C(=O)NCc2nnc3ccc(C(F)(F)F)cn23)c(C)c1`, the inhibition was 43 ± 10% (IDO1; kynurenine production, inhibitor, item: L-kynurenine; A-375; 10 µM, 48 h, with: IFN-γ).
For `CCCCCCCCCCC[C@H](C[C@@H]1OC(=O)[C@H]1CCCCCC)OC(=O)[C@H](CC(C)C)NC=O`, the inhibition was 57.8 ± 1.6% (fbpC (Mycobacterium tuberculosis, UniProt P9WQN9); 100 µM).
The inhibition of `CC(C)(C)c1cnc(CSc2cnc(NC(=O)C3CCN(CC(=O)NCCOCCOCCOCCNc4cccc5c4C(=O)N(C4CCC(=O)NC4=O)C5=O)CC3)s2)o1` (centres unmarked) is reported as 41.3% (GSK3A; probe labeling, KiNativ live-cell profiling; MOLT-4; 0.25 µM).
With `C/C(=N/N=c1/scc(-c2ccc([N+](=O)[O-])cc2)n1Cc1ccccc1)c1ccc2c(c1)OCCO2` the inhibition was 14% (Aldo-keto reductase family 1 member B1; enzyme activity, inhibitor, absorbance; 1 mM).
`CSc1ccc2c(c1)C(N1CCN(C)CC1)Cc1ccccc1S2.O=C(O)/C=C\C(=O)O` (centres unmarked) has an inhibition of 85.6% (SCN10A; sodium influx, inhibitor, FLIPR; HEK293; 10 µM, with: deltamethrin 10 µM).
For `O=C1C(=Cc2ccc(F)cc2)CN(CC(=O)c2ccc(F)cc2)CC1=Cc1ccc(F)cc1`, the inhibition was under 10% (Genome polyprotein NS2B-NS3 protease; protease activity; dengue virus 2; 50 µM).
The inhibition of `O=C1/C(=C/c2ccc(O)cc2)OC(=S)N1c1ccccc1` is reported as 10.2% (PPO3; enzyme activity, inhibitor; 25 µM).
`COc1ccc(C(=O)CN2CC(=Cc3ccccc3Cl)C(=O)C(=Cc3ccccc3Cl)C2)cc1` gave an inhibition of under 10% (Genome polyprotein NS2B-NS3 protease; protease activity; dengue virus 2; 50 µM).
With `CC(C)NCC(O)c1ccc(O)c(O)c1.Cl` (single isomer, unassigned; (-)) the inhibition was 99.2% (SCN10A; sodium influx, inhibitor, FLIPR; HEK293; 10 µM, with: deltamethrin 10 µM).
With `CC(C)(C)c1cnc(CSc2cnc(NC(=O)C3CCNCC3)s2)o1` the inhibition was 40.2% (GSK3A; probe labeling, KiNativ live-cell profiling; MOLT-4 CRBN knockout; 0.25 µM).
`Cn1cc(-c2ccccc2)c2ccc(Cl)nc21` has an inhibition of 14.4% (gag-pol integrase; strand transfer; wild type; 10 µM).
`O=C(NCc1cccc2ccccc12)c1cccc2cn[nH]c12` gave an inhibition of 2 ± 2% (IDO1; kynurenine production, inhibitor, item: L-kynurenine; A-375; 10 µM, 48 h, with: IFN-γ).
`O=C1/C(=C/c2cc(Br)c(O)c(Br)c2)OC(=S)N1c1ccccc1` gave an inhibition of under 0% (PPO3; enzyme activity, inhibitor; 25 µM, with: L-tyrosine).
The inhibition of `Cc1ccc(Br)c(C)c1C(=O)NCc1nnc2ccc(C(F)(F)F)cn12` is reported as 38 ± 1% (IDO1; kynurenine production, inhibitor, item: L-kynurenine; A-375; 10 µM, 48 h, with: IFN-γ).
`Brc1ccc(-c2cs/c(=N/N=C\c3c[nH]c4ccccc34)n2C2CCCCC2)cc1` gave an inhibition of under 50% (Aldo-keto reductase family 1 member B1; enzyme activity, inhibitor, absorbance; 1 mM).
For `CCCCC/C=C\C/C=C\C/C=C\C/C=C\CCCC(=O)O`, the inhibition was about 93% (CES1 (Homo sapiens, UniProt P23141); trans-permethrin hydrolysis, inhibitor, HPLC-UV; 20 µM, no albumin, with: trans-permethrin 50 µM).
`O=C1/C(=C/c2ccc(O)c(Br)c2)OC(=S)N1c1ccccc1` gave an inhibition of 25% (PPO3; enzyme activity, inhibitor; 25 µM, with: L-tyrosine).
The inhibition of `CSCC[C@H](NC(=O)[C@@H](NC(=O)[C@H](CCCNC(=N)N)NC(=O)[C@H](C)N)[C@@H](C)O)C(=O)N[C@H]1CCCCNC(=O)CC[C@@H](C(=O)N[C@H](C(=O)NCC(=O)NCC(=O)N[C@@H](CCCCN)C(=O)N[C@@H](C)C(=O)N2CCC[C@H]2C(=O)N[C@@H](CCCNC(=N)N)C(=O)N[C@@H](CCCCN)C(=O)N[C@@H](CCC(N)=O)C(=O)N[C@@H](CC(C)C)C(=O)N[C@@H](C)C(=O)O)[C@@H](C)O)NC(=O)[C@H](CCCCN)NC(=O)[C@H](C)NC(=O)[C@H](C)NC(=O)[C@H]([C@@H](C)O)NC1=O` is reported as 0% (KDM1A with CoREST; demethylase activity, fluorescence; 500 nM).
With `C/C(=N/N=c1/scc(-c2ccc(Br)cc2)n1-c1ccccc1C)c1ccc2c(c1)NC(=O)CO2` the inhibition was 19.5% (Aldo-keto reductase family 1 member B1; enzyme activity, inhibitor, absorbance; 1 mM).
For `C[N+]1(CCCCC[N+]2(C)CCCC2)CCCC1.O=C([O-])C(O)C(O)C(=O)O.O=C([O-])C(O)C(O)C(=O)O`, the inhibition was 85.6% (SCN10A; sodium influx, inhibitor, FLIPR; HEK293; 10 µM, with: deltamethrin 10 µM).
The inhibition of `COc1ccc(/C=C2\OC(=S)N(c3ccccc3)C2=O)cc1O` is reported as 13.4% (PPO3; enzyme activity, inhibitor; 25 µM).
For `O=C(NCc1ccccc1)c1cnn(Cc2ccc(Cn3ccccc3=O)cc2)c1`, the inhibition was under 30% (Plasma kallikrein (KLKB1, Homo sapiens, UniProt P03952); enzyme activity, inhibitor; 1 µM).
With `CCCC[C@H](NC(=O)[C@@H](NC(=O)[C@H](CCCNC(=N)N)NC(=O)CN)[C@@H](C)O)C(=O)N[C@@H](CCC(N)=O)C(=O)N[C@H](C(=O)N[C@@H](C)C(=O)N[C@@H](CCCNC(=N)N)C(=O)N[C@@H](CCCCN)C(=O)N[C@@H](CO)C(=O)N[C@H](C(=O)NCC(=O)NCC(N)=O)[C@@H](C)O)[C@@H](C)O` the inhibition was about 77% (SETD7 (Homo sapiens, UniProt Q8WTS6); enzyme activity, inhibitor, MALDI-TOF MS; 50 µM, 10 min preincubation, 30 min, pH 8, 37 °C, enzyme 500 nM, with: H3 1-21 peptide, SAM 30 µM).
With `C/C(=N/N=c1/scc(-c2ccc([N+](=O)[O-])cc2)n1-c1ccc(F)cc1)c1ccc2c(c1)OCCO2` the inhibition was 11% (Aldo-keto reductase family 1 member B1; enzyme activity, inhibitor, absorbance; 1 mM).
`CCCCCCCC(=O)NCCCC[C@H](NC(=O)[C@H](C)NC(=O)[C@H](CC(C)C)NC(=O)[C@H](CCC(N)=O)NC(=O)[C@H](CCCCN)NC(=O)[C@H](CCCNC(=N)N)NC(=O)[C@@H]1CCCN1C(=O)[C@H](C)NC(=O)[C@H](CCCCN)NC(=O)CNC(=O)CNC(=O)[C@@H](NC(=O)[C@@H]1CCC(=O)NCCCC[C@H](NC(=O)[C@H](CCSC)NC(=O)[C@H](C)NC(=O)[C@H](CCCNC(=N)N)NC(=O)[C@H](C)N)C(=O)N[C@@H]([C@@H](C)O)C(=O)N[C@@H](C)C(=O)N[C@@H](CCCNC(=N)N)C(=O)N[C@@H](CCCCN)C(=O)N1)[C@@H](C)O)C(N)=O` has an inhibition of 71 ± 3.4% (KDM1A with CoREST; demethylase activity, inhibitor, fluorescence; 500 nM).
Under inhibition, `O=C(N[C@@H](Cn1ccnc1)c1ccc(-c2ccc(F)cc2)cc1Cl)c1ccc(-c2nnc(-c3ccccc3)o2)cc1` is recorded as “inhibited” (CYP51 (Trypanosoma cruzi, UniProt Q7Z1V1); enzyme activity, inhibitor; 1 µM, 1 h, equimolar inhibitor/enzyme, with: eburicol 50 µM).
`O=C1/C(=C/c2ccc(O)cc2O)OC(=S)N1c1ccccc1` has an inhibition of 78% (PPO3; enzyme activity, inhibitor; 25 µM, with: L-tyrosine).
The inhibition of `O=C(NCc1nnc2ccccn12)c1cccc2cn[nH]c12` is reported as 1 ± 1% (IDO1; kynurenine production, inhibitor, item: L-kynurenine; A-375; 10 µM, 48 h, with: IFN-γ).
`COc1ccc(-c2ccc3c(-c4ccc(F)cc4F)cn(C)c3n2)cc1` gave an inhibition of 71.6% (gag-pol integrase; strand transfer; wild type; 10 µM).
The inhibition of `O=C(NCc1nnc2ccc(C(F)(F)F)cn12)c1cc(-c2ccc(F)cc2)ccc1F` is reported as 29 ± 2% (IDO1; kynurenine production, inhibitor, item: L-kynurenine; A-375; 10 µM, 48 h, with: IFN-γ).
The inhibition of `CC(C)(C)NCC(O)c1cc(O)cc(O)c1.CC(C)(C)NCC(O)c1cc(O)cc(O)c1.O=S(=O)(O)O` (centres unmarked) is reported as 90.6% (SCN10A; sodium influx, inhibitor, FLIPR; HEK293; 10 µM, with: deltamethrin 10 µM).
`C/C(=N/N=c1/scc(-c2ccc(Br)cc2)n1-c1ccccc1)c1ccc2c(c1)NC(=O)CO2` has an inhibition of 13.4% (Aldo-keto reductase family 1 member B1; enzyme activity, inhibitor, absorbance; 1 mM).
With `COc1ccc(/C=C2\OC(=S)N(c3ccccc3)C2=O)cc1OC` the inhibition was 7.47% (PPO3; enzyme activity, inhibitor; 25 µM).
For `O=C1C(=Cc2ccc(Cl)cc2Cl)CN(CC(=O)c2ccc(F)cc2)CC1=Cc1ccc(Cl)cc1Cl`, the inhibition was under 10% (Genome polyprotein NS2B-NS3 protease; protease activity; dengue virus 2; 50 µM).
`Cc1ccc(-c2cccc(C(=O)NCc3nnc4ccc(C(F)(F)F)cn34)c2)cc1` gave an inhibition of 39 ± 4% (IDO1; kynurenine production, inhibitor, item: L-kynurenine; A-375; 10 µM, 48 h, with: IFN-γ).
The inhibition of `CC(C)NCC(O)c1cc(O)cc(O)c1.CC(C)NCC(O)c1cc(O)cc(O)c1.O=S(=O)(O)O` (centres unmarked) is reported as 78.5% (SCN10A; sodium influx, inhibitor, FLIPR; HEK293; 10 µM, with: deltamethrin 10 µM).
`O=C(NCc1nnc2ccc(C(F)(F)F)cn12)c1cc(Br)c(O)cc1O` has an inhibition of 32 ± 7% (IDO1; kynurenine production, inhibitor, item: L-kynurenine; A-375; 10 µM, 48 h, with: IFN-γ).
The inhibition of `CNC(=O)c1ccccc1Nc1cc(Nc2ccc(N3CCOCC3)cc2OC)ncc1C(F)(F)F` is reported as over 60% (Focal adhesion kinase 1, phosphorylated Tyr397 (Ptk2, Mus musculus, UniProt P34152); Tyr397 phosphorylation, immunoblot; BALB/c mouse, 4T1 tumour, subcutaneous tumour; i.p., 100 mg/kg single, 12 h).
